Measured values from different studies.
Protocols differ between the studies behind these lines. Numbers after ± are the reported error.

| SMILES | assay | test system | conditions | tissue uptake |
| --- | --- | --- | --- | --- |
| CN1C(=O)[C@@H](Cc2ccc(O)c(I)c2)NC(=O)CNC(=O)[C@H](Cc2ccc3ccccc3c2)NC(=O)[C@H](CCCNC(=N)N)NC(=O)[C@H]1CCCNC(=O)c1ccc(CNC(=O)CN2CCN(CC(=O)O)CCN(CC(=O)O)CCN(CC(=O)O)CC2)cc1 [lutetium-177 labelled] | item: 177Lu radioactivity | female CB-17 SCID mice, Daudi xenograft, pancreas | intravenous, 0.16 nmol per mouse, 1 h | 0.4 ± 0.1 %ID/g |
| CCCC[C@H](NC(=O)CNC(=O)CNC(=O)CN1CCN(CC(=O)O)CCN(CC(=O)O)CCN(CC(=O)O)CC1)C(=O)N[C@H]1CC(=O)NCCCC[C@@H](C(N)=O)NC(=O)[C@H](Cc2c[nH]c3ccccc23)NC(=O)[C@H](CCCNC(=N)N)NC(=O)[C@@H](Cc2ccccc2)NC(=O)[C@H](Cc2c[nH]cn2)NC1=O [copper-64 labelled] | – | female C57 mouse, B16/F1 melanoma, bone | intravenous, 0.037 MBq, 2 h | 0.82 ± 0.28 %ID/g |
| NC12CNCCNCC(NCc3ccc(CNC(=O)CCCC(=O)NCc4ccc(-c5nncnn5)cc4)cc3)(CNCCNC1)CNCCNC2.[64Cu+2] | – | athymic nude mice, SW1222 xenograft, stomach, with contents | 24 h p.i., huA33-TCO pretargeting, 24 h interval | 0.28 ± 0.07 %ID/g |
| CCCC[C@H](NC(=O)CN1CCC(NC(=O)CN2CCN(CC(=O)O)CCN(CC(=O)O)CCN(CC(=O)O)CC2)CC1)C(=O)N[C@H]1CC(=O)NCCCC[C@@H](C(N)=O)NC(=O)[C@H](Cc2c[nH]c3ccccc23)NC(=O)[C@H](CCCNC(=N)N)NC(=O)[C@@H](Cc2ccccc2)NC(=O)[C@H](Cc2c[nH]cn2)NC1=O [gallium-68 labelled] | – | C57BL/6J mice male B16-F10 tumour, heart | 1 h post injection, unblocked | 0.3 ± 0.1 %ID/g |
| CCCC[C@H](NC(=O)CNC(=O)CNC(=O)CN1CCN(CC(=O)O)CCN(CC(=O)O)CC1)C(=O)N[C@H]1CC(=O)NCCCC[C@@H](C(N)=O)NC(=O)[C@H](Cc2c[nH]c3ccccc23)NC(=O)[C@H](CCCNC(=N)N)NC(=O)[C@@H](Cc2ccccc2)NC(=O)[C@H](Cc2c[nH]cn2)NC1=O [copper-64 labelled] | – | female C57 mouse, B16/F1 melanoma, tumor | intravenous, 0.037 MBq, 4 h | 12.7 ± 2.68 %ID/g |
| OCc1cn(Cc2ccc(-c3noc(-c4ccc(OCC[18F])c(C(F)(F)F)c4)n3)cc2)nn1 | – | female Lewis rat, spleen | intravenous, 30 min | 1.36 ± 0.04 %ID/g |
| CC(C)[C@H](NC(=O)[C@@H]1CCCN1C(=O)[C@H](CCCNC(=N)N)NC(=O)[C@H](CS)NC(=O)[C@H](Cc1c[nH]c2ccccc12)NC(=O)[C@H](CCCNC(=N)N)NC(=O)[C@@H](Cc1ccccc1)NC(=O)[C@H](Cc1c[nH]cn1)NC(=O)[C@H](CCC(=O)O)NC(=O)[C@H](CS)NC(=O)[C@H](CS)NC(=O)[C@@H]1CC(=O)N[C@@H](CCCNC(=N)N)C(=O)NCC(=O)N[C@@H](CC(=O)O)C(=O)N[C@H](Cc2ccc(O)cc2)C(=O)N1)C(N)=O [technetium-99m labelled] | – | C57 mouse, female, B16/F1 melanoma, pancreas | intravenous, 0.037 MBq, 0.5 h | 1.02 ± 0.52 %ID/g |
| CCCC[C@@H]1NC(=O)[C@@H](NC(=O)[C@H](CCC(=O)O)NC(=O)CNC(=O)CN2CCN(CC(=O)O)CCN(CC(=O)O)CCN(CC(=O)O)CC2)CCCCNC(=O)C[C@@H](C(N)=O)NC(=O)[C@H](C(C)C)NC(=O)[C@@H]2CCCN2C(=O)[C@H](CCCNC(=N)N)NC(=O)CNC(=O)[C@H](Cc2c[nH]c3ccccc23)NC(=O)[C@H](CCCNC(=N)N)NC(=O)[C@@H](Cc2ccccc2)NC(=O)[C@H](Cc2c[nH]cn2)NC(=O)[C@H](CCC(=O)O)NC1=O [gallium-67 labelled] | – | normal C57 mice, bone | intravenous, 0.037 MBq/mouse, 4 h | 0.42 ± 0.16 %ID/g |

For quick reference, copied from above:
| SMILES | assay | test system | conditions | tissue uptake |
| --- | --- | --- | --- | --- |
| CCCC[C@@H]1NC(=O)[C@@H](NC(=O)[C@H](CCC(=O)O)NC(=O)CNC(=O)CN2CCN(CC(=O)O)CCN(CC(=O)O)CCN(CC(=O)O)CC2)CCCCNC(=O)C[C@@H](C(N)=O)NC(=O)[C@H](C(C)C)NC(=O)[C@@H]2CCCN2C(=O)[C@H](CCCNC(=N)N)NC(=O)CNC(=O)[C@H](Cc2c[nH]c3ccccc23)NC(=O)[C@H](CCCNC(=N)N)NC(=O)[C@@H](Cc2ccccc2)NC(=O)[C@H](Cc2c[nH]cn2)NC(=O)[C@H](CCC(=O)O)NC1=O [gallium-67 labelled] | – | normal C57 mice, bone | intravenous, 0.037 MBq/mouse, 4 h | 0.42 ± 0.16 %ID/g |
